Measurements from different studies.
Each line is one published result; not all experiments were run side by side. Numbers after ± are the reported error.
GBA2: Beta-glucosidase (GBA2, Homo sapiens, UniProt Q9HCG7)
Sequence of UniProt Q9HCG7 (whole entry, looked up): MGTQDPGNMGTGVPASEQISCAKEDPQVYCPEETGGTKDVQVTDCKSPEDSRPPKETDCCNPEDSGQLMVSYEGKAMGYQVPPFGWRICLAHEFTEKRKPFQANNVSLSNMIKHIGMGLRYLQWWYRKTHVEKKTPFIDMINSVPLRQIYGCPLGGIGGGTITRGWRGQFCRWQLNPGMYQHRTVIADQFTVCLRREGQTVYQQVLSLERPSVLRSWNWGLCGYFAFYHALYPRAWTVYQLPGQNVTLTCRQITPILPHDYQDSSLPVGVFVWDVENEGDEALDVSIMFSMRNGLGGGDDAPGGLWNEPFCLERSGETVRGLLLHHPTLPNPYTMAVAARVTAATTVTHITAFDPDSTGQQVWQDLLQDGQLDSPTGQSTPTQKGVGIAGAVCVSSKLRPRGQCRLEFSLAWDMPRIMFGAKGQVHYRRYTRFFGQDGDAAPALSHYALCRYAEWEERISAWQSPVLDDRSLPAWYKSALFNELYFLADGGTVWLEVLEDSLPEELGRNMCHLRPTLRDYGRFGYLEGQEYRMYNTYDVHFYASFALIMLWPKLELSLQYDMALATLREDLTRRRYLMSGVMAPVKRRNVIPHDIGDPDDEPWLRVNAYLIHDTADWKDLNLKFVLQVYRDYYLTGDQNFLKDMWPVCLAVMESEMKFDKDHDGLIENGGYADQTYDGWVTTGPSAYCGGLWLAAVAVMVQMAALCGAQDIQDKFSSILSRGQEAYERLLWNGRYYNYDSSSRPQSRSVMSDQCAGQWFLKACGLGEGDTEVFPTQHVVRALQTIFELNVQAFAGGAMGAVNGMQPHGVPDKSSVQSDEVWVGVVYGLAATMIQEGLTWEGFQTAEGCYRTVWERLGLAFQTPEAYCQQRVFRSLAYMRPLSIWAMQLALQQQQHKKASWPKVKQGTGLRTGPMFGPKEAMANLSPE
Sequence of UniProt P46089 (whole entry, unmodified, looked up): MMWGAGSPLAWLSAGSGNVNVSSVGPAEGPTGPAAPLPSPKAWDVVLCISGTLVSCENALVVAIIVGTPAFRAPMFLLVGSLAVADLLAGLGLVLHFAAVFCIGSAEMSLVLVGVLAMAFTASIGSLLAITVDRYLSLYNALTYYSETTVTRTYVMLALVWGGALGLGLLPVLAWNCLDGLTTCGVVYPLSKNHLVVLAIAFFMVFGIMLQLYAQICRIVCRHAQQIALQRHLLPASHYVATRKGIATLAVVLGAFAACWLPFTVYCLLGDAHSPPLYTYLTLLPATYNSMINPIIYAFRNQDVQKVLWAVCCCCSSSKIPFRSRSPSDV
Sequence of UniProt Q9Y243 (whole entry, looked up): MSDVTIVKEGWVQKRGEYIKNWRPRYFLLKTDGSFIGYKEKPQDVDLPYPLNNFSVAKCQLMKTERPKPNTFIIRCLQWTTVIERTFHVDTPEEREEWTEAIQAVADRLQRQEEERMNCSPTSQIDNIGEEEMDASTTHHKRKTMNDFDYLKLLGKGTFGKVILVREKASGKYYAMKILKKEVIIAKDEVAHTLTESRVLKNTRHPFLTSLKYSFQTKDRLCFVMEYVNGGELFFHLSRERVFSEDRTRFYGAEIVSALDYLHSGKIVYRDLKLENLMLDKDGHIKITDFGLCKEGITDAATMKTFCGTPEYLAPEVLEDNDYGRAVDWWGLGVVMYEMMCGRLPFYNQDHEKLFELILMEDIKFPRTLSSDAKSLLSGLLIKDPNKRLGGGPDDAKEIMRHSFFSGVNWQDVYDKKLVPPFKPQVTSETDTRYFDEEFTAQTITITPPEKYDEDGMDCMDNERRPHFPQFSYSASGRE
Sequence of UniProt P03372 (whole entry, looked up): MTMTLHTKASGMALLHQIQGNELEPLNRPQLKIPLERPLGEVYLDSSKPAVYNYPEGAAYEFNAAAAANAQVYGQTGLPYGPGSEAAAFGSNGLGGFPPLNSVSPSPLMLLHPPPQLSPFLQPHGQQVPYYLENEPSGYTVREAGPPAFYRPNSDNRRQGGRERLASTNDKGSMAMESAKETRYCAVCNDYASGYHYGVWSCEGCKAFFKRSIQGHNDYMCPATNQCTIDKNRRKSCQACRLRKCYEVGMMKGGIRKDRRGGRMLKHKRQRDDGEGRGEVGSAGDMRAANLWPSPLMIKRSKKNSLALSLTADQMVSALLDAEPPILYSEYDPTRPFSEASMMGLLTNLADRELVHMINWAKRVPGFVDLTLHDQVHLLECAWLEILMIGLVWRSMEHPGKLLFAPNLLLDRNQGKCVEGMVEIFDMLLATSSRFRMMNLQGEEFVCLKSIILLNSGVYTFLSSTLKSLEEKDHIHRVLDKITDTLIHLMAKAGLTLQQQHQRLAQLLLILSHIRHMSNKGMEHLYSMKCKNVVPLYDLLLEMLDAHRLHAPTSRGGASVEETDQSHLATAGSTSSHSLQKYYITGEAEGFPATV
Sequence of UniProt P05067 (whole entry, looked up): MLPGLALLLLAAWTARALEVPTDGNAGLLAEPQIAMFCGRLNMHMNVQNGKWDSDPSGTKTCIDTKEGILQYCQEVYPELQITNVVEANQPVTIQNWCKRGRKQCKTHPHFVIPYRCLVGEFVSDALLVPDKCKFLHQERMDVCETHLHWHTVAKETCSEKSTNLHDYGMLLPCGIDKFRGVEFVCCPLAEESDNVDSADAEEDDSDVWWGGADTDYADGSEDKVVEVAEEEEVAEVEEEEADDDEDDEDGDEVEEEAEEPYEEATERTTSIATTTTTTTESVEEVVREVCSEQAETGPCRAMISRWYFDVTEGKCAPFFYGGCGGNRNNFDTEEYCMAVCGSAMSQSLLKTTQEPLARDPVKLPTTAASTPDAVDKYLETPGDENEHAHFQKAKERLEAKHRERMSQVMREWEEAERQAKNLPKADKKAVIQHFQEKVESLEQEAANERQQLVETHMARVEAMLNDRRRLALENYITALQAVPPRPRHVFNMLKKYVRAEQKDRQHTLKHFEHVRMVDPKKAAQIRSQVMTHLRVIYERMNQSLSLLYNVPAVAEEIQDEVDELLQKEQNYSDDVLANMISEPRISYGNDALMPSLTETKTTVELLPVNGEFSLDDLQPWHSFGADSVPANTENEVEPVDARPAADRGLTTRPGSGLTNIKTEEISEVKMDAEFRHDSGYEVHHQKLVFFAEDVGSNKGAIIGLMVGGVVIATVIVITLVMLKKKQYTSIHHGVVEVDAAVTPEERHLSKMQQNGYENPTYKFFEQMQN
Sequence of UniProt P43220 (whole entry, unmodified, looked up): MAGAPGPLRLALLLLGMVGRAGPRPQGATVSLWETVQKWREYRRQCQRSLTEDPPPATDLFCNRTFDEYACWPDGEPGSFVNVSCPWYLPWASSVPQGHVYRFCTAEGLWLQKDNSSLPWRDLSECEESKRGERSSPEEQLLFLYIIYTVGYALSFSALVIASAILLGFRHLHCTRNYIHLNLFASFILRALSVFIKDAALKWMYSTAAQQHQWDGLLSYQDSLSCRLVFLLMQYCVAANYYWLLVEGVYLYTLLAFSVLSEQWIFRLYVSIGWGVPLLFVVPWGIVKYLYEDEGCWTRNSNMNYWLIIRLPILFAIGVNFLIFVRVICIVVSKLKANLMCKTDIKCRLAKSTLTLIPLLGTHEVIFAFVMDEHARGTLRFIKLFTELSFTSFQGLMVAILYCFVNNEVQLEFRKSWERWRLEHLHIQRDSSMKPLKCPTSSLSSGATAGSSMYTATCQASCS
Sequence of UniProt Q9SZU7 (whole entry, unmodified, looked up): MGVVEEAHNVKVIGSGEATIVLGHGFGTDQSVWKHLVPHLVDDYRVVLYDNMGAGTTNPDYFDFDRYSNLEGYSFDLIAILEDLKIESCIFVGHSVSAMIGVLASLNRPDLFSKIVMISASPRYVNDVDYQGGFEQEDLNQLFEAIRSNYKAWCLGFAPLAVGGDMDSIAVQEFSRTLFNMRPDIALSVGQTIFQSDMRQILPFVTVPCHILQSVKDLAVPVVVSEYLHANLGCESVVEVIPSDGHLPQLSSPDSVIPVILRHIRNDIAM

| target | assay | system | setting | quantity | result | SMILES |
| --- | --- | --- | --- | --- | --- | --- |
| GBA2 | inhibitor, 4MU-β-D-glucopyranoside | HEK293T homogenates overexpressing GBA2 | – | IC50 | 5 nM | OC[C@@H]1[C@@H](O)[C@H](O)[C@@H](O)CN1CCCCCOCc1ccc(-c2ccc(F)nc2)cc1 |
| GLP1R (Homo sapiens, UniProt P43220, R380A) | cAMP, agonist | – | – | EC50 | 41.7 nM | COc1cc(C2C(NC(=O)c3ccc(NC(=O)OC(C)(C)C)cc3)(C(=O)O)C(c3ccc(OC(=O)c4cccs4)c(OC)c3)C2(NC(=O)c2ccc(NC(=O)OC(C)(C)C)cc2)C(=O)O)ccc1OC(=O)c1cccs1 (stereo not drawn) |
| KAI2 (Arabidopsis thaliana, UniProt Q9SZU7, L142A) | ITC | – | L142A mutant, mean | Kd | 10.4 µM | Cc1cccc2c1N(C(=O)n1ccnn1)CC2 |
| AKT3 (Homo sapiens, UniProt Q9Y243) | SelectScreen kinase | – | – | IC50 | 2640 nM | Cc1nn(-c2cccc(N)c2)c(=O)c2cnc(Nc3ccc(N4CCNCC4)cc3)nc12 |
| Amyloid-beta precursor protein, Aβ40 fibrils (APP, Homo sapiens, UniProt P05067) | amyloid fibril disassembly, thioflavin T fluorescence | – | 24 h, 37 °C, with: 25 µM amyloid-beta | DC50 | 10.4 ± 0.65 µM | COc1cc(/C=C/c2cc(-[c-]3cccc3)[nH]n2)ccc1O.[Fe+2].c1cc[cH-]c1 |
| GBA2 | inhibitor, 4MU-β-D-glucopyranoside | HEK293T homogenates overexpressing GBA2 | – | IC50 | 10 nM | OC[C@@H]1[C@@H](O)[C@H](O)[C@@H](O)CN1CCCCCCC12CC3CC(CC(C3)C1)C2 |
| Estrogen receptor (ESR1, Homo sapiens, UniProt P03372) | reporter gene, luciferase reporter (3xERE) | 293T | 24 h | EC50 | 108 nM | CC[C@@H]([C@H](C)c1ccc(O)cc1)[C@@H](CC)c1ccc(O)cc1 |
| GBA2 | inhibitor, 4MU-β-D-glucopyranoside | HEK293T homogenates overexpressing GBA2 | – | IC50 | 3 nM | COc1ccccc1-c1ccc(COCCCCCN2C[C@H](O)[C@@H](O)[C@H](O)[C@H]2CO)cc1 |
| GPR3 (Homo sapiens, UniProt P46089, R152A) | cAMP level, agonist, cAMP GloSensor | – | R152A mutant | EC50 | 170 nM | CC(C)Oc1cc(Cl)ccc1CNc1cc(-c2ccccc2)nc2ncnn12 |

A few entries again:
| target | assay | system | setting | quantity | result | SMILES |
| --- | --- | --- | --- | --- | --- | --- |
| GBA2 | inhibitor, 4MU-β-D-glucopyranoside | HEK293T homogenates overexpressing GBA2 | – | IC50 | 5 nM | OC[C@@H]1[C@@H](O)[C@H](O)[C@@H](O)CN1CCCCCOCc1ccc(-c2ccc(F)nc2)cc1 |
